Results from different studies.
± marks the error that the study gave.

`CCCC[C@H]1C(=O)N(C)[C@@H](CCCC)C(=O)N[C@@H](CCCCNC(=O)CN2CCN(CC(=O)O)CCN(CC(=O)O)CC2)C(=O)N[C@H](C(=O)NCC(N)=O)CSCC(=O)N[C@@H](Cc2ccc(O)cc2)C(=O)N(C)[C@@H](C)C(=O)N[C@@H](CC(N)=O)C(=O)N2CCC[C@H]2C(=O)N[C@@H](Cc2c[nH]cn2)C(=O)N[C@@H](CCC(=O)O)C(=O)N2C[C@H](O)C[C@H]2C(=O)N[C@@H](Cc2c[nH]c3ccccc23)C(=O)N[C@@H](CO)C(=O)N[C@@H](Cc2cn(CC(=O)O)c3ccccc23)C(=O)N1C` [gallium-68 labelled] gave an intact fraction of at least 99% (radio-HPLC; PBS and FBS; up to 2 h).
For `Clc1ccc(-c2ccccc2)cc1`, the serum Chloride was 77 ± 3 mmol/L (rat Sprague-Dawley female, serum; inhalation, 35 µg/rat, 24 h).
`COc1ccc(CCC2CCCC(CCc3ccc(OC)cc3)N2C[C@@H](O)CO)cc1.Cl` (stereo in doubt) — result for “resting membrane potential change”: -0.9 ± 0.7 mV (rabbit Purkinje fibres; 0.03 µM, cycle length 0.5 s; reference: baseline).
For `C[C@@H]1NC(=O)[C@H](CCCCNC(=O)CO/N=C/C(=O)NCCCC[C@@H]2NC(=O)[C@@H](Cc3ccccc3)NC(=O)[C@H](CC(=O)O)NC(=O)CNC(=O)[C@H](CCCNC(=N)N)NC2=O)NC(=O)CNC(=O)[C@@H]2CCCN2C(=O)[C@H](CCCCNC(=O)CO/N=C/C(=O)NCCCC[C@@H]2NC(=O)[C@@H](Cc3ccccc3)NC(=O)[C@H](CC(=O)O)NC(=O)CNC(=O)[C@H](CCCNC(=N)N)NC2=O)NC(=O)[C@H](CCCCNC(=O)[C@H](CCCCN)NC(=O)[C@H](Cc2ccccc2)NC(=O)CNC(=O)CN2CCCNCCNCCCNCC2)NC(=O)[C@H](CCCCNC(=O)CO/N=C/C(=O)NCCCC[C@@H]2NC(=O)[C@@H](Cc3ccccc3)NC(=O)[C@H](CC(=O)O)NC(=O)CNC(=O)[C@H](CCCNC(=N)N)NC2=O)NC(=O)CNC(=O)[C@@H]2CCCN2C(=O)[C@H](CCCCNC(=O)CO/N=C/C(=O)NCCCC[C@@H]2NC(=O)[C@@H](Cc3ccccc3)NC(=O)[C@H](CC(=O)O)NC(=O)CNC(=O)[C@H](CCCNC(=N)N)NC2=O)NC1=O` [copper-64 labelled], the tissue uptake was 0.2 ± 0.04 %ID/g (normal mice, muscle; intravenous, 0.74 MBq, 24 h post-injection).
`O=S(=O)(Nc1ccccc1)c1ccc(NC(=S)Nc2ccccc2)cc1`: “blood cell fraction” 76.2% (refers to: LY%; female mouse, blood; oral, 5 mg/kg daily, 14 days).
The potassium change of `C[C@H]1C[C@@H](N2C(=N)N[C@](C)(c3cccc(NC(=O)c4cccc(C#N)c4)c3Cl)CC2=O)CCO1` is reported as -8% (rat; 1000 mg/kg, every other day).
For `N#C/N=C1\SCCN1Cc1ccc(Cl)nc1`, the concentration was 0.02 mg/kg dry soil (soil; 56 days, nominal 1.1).
Under “subjects with blurred vision”, `O=C(Nc1ccccc1)C1CCN(C(=O)Oc2cccnc2)CC1` is recorded as 0% (adverse event reporting; healthy women; oral, 20 mg, 7 days).
For `CCc1ccc(CC/C=C/c2ccc3c(c2)C(=O)CC3)cc1`, the total bilirubin was 1.43 µM (Sprague-Dawley rat, male, serum; oral, 30 mg/kg/day, 14 days).
With `CN1CCN(S(=O)(=O)c2cc([N+](=O)[O-])ccc2N(CCOS(C)(=O)=O)CCOS(C)(=O)=O)CC1` the potassium was 6.8 mmol/L (naive NOD/SCID mice, pooled blood; intraperitoneal, 6.3 mg/kg, week 1).
Under “treatment-emergent adverse events”, `C=CCNc1c(O)cc2c(O)c1C[C@@H](C)C[C@H](OC)[C@H](O)[C@@H](C)/C=C(\C)[C@H](OC(N)=O)[C@@H](OC)/C=C\C=C(/C)C(=O)N2` is recorded as 0% (refers to: first-degree AV block; patients with unresectable or metastatic GIST, STS or other tumours; intravenous, 150 mg/m^2).
For `C[C@]1(CO)Cc2ncn(-c3ccc(C#N)c(Cl)c3)c2C(=O)O1`, “drug-related Hyperhidrosis incidence” read 8.3% (healthy humans; 10 mg, fed).
`CN1CC[C@@H](c2c(O)cc(O)c3c(=O)cc(-c4ccc(C(F)(F)F)cc4Cl)oc23)[C@@H]1CO` — result for “patients with adverse event”: 7.5% (refers to: Hypotension; relapsed or refractory haematological malignancies; oral, dose not given, grade 3 to 4, all arms).
Under “unbound brain concentration”, `CN(C)C1(CNC(=O)c2ccc3c(c2)CCN3C(=O)c2ccccc2)CCOCC1` is recorded as 597 nM (male C57BL/6 mice; intraperitoneal, 50 mg/kg, 30 min).

Excerpt of the above:
With `CN1CCN(S(=O)(=O)c2cc([N+](=O)[O-])ccc2N(CCOS(C)(=O)=O)CCOS(C)(=O)=O)CC1` the potassium was 6.8 mmol/L (naive NOD/SCID mice, pooled blood; intraperitoneal, 6.3 mg/kg, week 1).
Under “subjects with blurred vision”, `O=C(Nc1ccccc1)C1CCN(C(=O)Oc2cccnc2)CC1` is recorded as 0% (adverse event reporting; healthy women; oral, 20 mg, 7 days).
